# Assay results from different studies.
# Compare with care: the assays were run in different laboratories. Numbers after ± are the reported error.
# TDP1: Tyrosyl-DNA phosphodiesterase 1 (TDP1, Homo sapiens, UniProt Q9NUW8)
# UniProt Q9NUW8, sequence (whole entry, looked up): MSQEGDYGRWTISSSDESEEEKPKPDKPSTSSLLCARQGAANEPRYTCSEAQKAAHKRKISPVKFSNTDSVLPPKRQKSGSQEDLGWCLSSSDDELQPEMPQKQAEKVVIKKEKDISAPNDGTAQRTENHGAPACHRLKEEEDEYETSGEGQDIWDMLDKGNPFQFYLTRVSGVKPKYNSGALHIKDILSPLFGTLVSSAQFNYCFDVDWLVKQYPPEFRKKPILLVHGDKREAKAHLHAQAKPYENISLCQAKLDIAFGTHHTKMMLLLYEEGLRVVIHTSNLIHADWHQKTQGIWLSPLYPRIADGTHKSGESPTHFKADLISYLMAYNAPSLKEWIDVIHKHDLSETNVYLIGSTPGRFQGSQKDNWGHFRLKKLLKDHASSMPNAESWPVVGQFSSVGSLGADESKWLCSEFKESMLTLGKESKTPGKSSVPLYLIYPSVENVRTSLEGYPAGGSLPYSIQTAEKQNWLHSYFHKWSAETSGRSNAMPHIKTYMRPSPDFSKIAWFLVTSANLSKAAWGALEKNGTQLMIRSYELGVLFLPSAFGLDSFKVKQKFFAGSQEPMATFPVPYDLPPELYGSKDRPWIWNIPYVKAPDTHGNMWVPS
SMILES,target or system,test,conditions,endpoint,result
O=C(O)c1ccc(Nc2c(-c3ccc(CON=Cc4cc5ccccc5s4)cc3)nc3cc(-c4ccccc4)ccn23)cc1,TDP1,"enzyme activity, inhibitor","100 µM, unpurified compound",inhibition,35.5%
CCOc1cncc(-c2ccc(NC(=O)C3(c4ccnc(NS(=O)(=O)C5CC5)n4)CCOCC3)nc2)n1,MV4-11,"cell proliferation, CellTiter-Glo",72 h,IC50,104 nM
Cc1sc2c(c1C)C(c1ccc(Cl)cc1)=N[C@@H](CC(=O)NCCN(C)CCCCNC(=O)CCCCOc1cccc3c1C(=O)N([C@H]1CCC(=O)NC1=O)C3=O)c1nnc(C)n1-2,MV4-11,"cell growth or viability, CCK-8",72 h,IC50,100 nM
O=c1c(-c2cnn(-c3ccccc3)c2)c(C(F)(F)F)oc2c(O)c(O)ccc12,MV4-11,"apoptosis, annexin V flow cytometry",,EC50,~13 µM
CNS(=O)(=O)Nc1nccc(Cc2c(C)c3ccc(Oc4ncccc4F)cc3oc2=O)c1F,MV4-11,cell viability,7 days,IC50,7.22 nM
COc1cc(-c2cc(C(C)=O)n3ccccc23)cc(OC)c1CN(C)C,MV4-11,"cell growth or viability, ATP luminescence",,IC50,2290 nM
CCN(C(=O)c1cc(F)ccc1Oc1nncnc1N1CCC2(C1)CN(C(CCCN(C)CCOC)C(C)C)C2)C(C)C (centres unmarked),MV4-11,"QuantiGene, refers to: MEIS1 mRNA",,IC50,1190 ± 148 nM
COc1cc(C(C)(C)O)c(OC)cc1-c1cc(C(C)=O)n2ccccc12,MV4-11,"cell growth or viability, ATP luminescence",,IC50,2350 nM
CC(C)c1ccc(N(C)c2ccc3c(c2)OCC[C@H]3CNc2cnccc2C(=O)O)cc1,MV4-11,"cell viability, CellTiter-Glo",7 days,IC50,4.02 nM
Cn1c(C=NOCc2ccc3nc(-c4ccccc4)c(Nc4ccc(C(=O)O)cc4)n3c2)ccc1C(C#N)c1ccccc1C#N (mixture of isomers),TDP1,"enzyme activity, inhibitor","100 µM, unpurified compound",inhibition,23.9%
COc1cc(-c2cn(C)c(=O)c3cnccc23)cc(OC)c1Cn1ccnc1,MV4-11,"cell growth or viability, ATP luminescence",,IC50,6500 nM

# Excerpt of the above:
SMILES,target or system,test,conditions,endpoint,result
O=c1c(-c2cnn(-c3ccccc3)c2)c(C(F)(F)F)oc2c(O)c(O)ccc12,MV4-11,"apoptosis, annexin V flow cytometry",,EC50,~13 µM
CNS(=O)(=O)Nc1nccc(Cc2c(C)c3ccc(Oc4ncccc4F)cc3oc2=O)c1F,MV4-11,cell viability,7 days,IC50,7.22 nM
